{"data": "Published values of several laboratories", "UCHL1": "Ubiquitin carboxyl-terminal hydrolase isozyme L1 (UCHL1, Homo sapiens, UniProt P09936)", "note": "Lines come from different studies, so protocols differ. Several values in a cell are separate wells, animals, samples, runs or records. ± gives the spread as reported.", "chain of UniProt P09936 (whole entry, looked up)": "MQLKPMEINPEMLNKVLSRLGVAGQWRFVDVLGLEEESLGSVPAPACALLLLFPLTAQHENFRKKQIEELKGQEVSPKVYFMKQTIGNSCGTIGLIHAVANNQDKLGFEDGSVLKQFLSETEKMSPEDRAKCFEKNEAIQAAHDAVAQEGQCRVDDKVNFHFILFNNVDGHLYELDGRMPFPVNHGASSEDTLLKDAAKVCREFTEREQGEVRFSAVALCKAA"}
{"SMILES": "Cc1n[nH]c2ccc(-c3cc(OC[C@@H](N)Cc4ccccc4)cnc3-c3ccoc3)cc12", "assay": "kinase binding, competitor, MIB/MS competition, item: PKH2", "system": "Candida albicans cell lysate", "setting": "1 µM", "how to read": "reference: DMSO", "measurement": "log2 fold change", "value": -0.0865}
{"SMILES": "CC(=O)Oc1cc2c(s1)CCN(C(C(=O)C1CC1)c1ccccc1F)C2 (stereo not drawn)", "assay": "light transmittance aggregometry", "system": "human patients, platelet-rich plasma", "setting": "dose not given, 15 min, together with: ADP 20 µM", "how to read": "reference: patients", "measurement": "patients with IPA above 90%", "value": "0%"}
{"SMILES": "CC(=O)c1cnc2ccc(-c3cc(Cl)c(O)c(Cl)c3)nc2c1N[C@H]1CC[C@H](CN(C)C)CC1", "assay": "phosphoproteomics, item: AHA2", "system": "Arabidopsis thaliana seedlings", "setting": "concentration not given, together with: RALF1", "measurement": "RALF1-induced phosphorylation", "value": "decreased"}
{"SMILES": "N#Cc1ccc2c(-c3ccncc3)c(-c3ccc(F)cc3)nn2c1", "assay": "kinase binding, competitor, MIB/MS competition, item: SAK1", "system": "Candida albicans cell lysate", "setting": "100 nM", "how to read": "reference: DMSO", "measurement": "log2 fold change", "value": -0.165}
{"SMILES": "Cc1ccc(C(=O)OCc2ccc([C@@H](CN)C(=O)Nc3ccc4cnccc4c3)cc2)c(C)c1", "assay": "tonometry", "system": "Macaca cyclopis, ocular normotensive", "setting": "ocular, 0.02%, 4 h", "measurement": "IOP", "value": "17.4 mmHg"}
{"SMILES": "CCCCCN1C[C@H](O)[C@@H](O)[C@H](O)[C@@H]1CO", "system": "mouse Hexb-/-, liver", "setting": "30 mg/kg/day", "how to read": "reference: untreated Hexb-/- mice", "measurement": "number of increased sphingolipids", "value": 1}
{"SMILES": "N#CC(C(=O)CCl)=C1Nc2cc(Cl)ccc2S1", "target or system": "UCHL1", "assay": "covalent, intact protein LC-MS", "setting": "12.5 µM", "measurement": "labelling", "value": "9.42%"}
{"SMILES": "O=C1CCc2ccc(OCCCCN3CCN(c4cccc(Cl)c4Cl)CC3)cc2N1", "assay": "item: stopping or switching", "system": "patients CYP2D6 extreme phenotypes", "setting": "dose not given, 6 months", "how to read": "reference: IM versus NM", "measurement": "hazard ratio", "value": 2.17}
{"SMILES": "OC(CCN1CCCCC1)(c1ccccc1)C1CC2C=CC1C2 (stereo not drawn)", "assay": "resting-state EEG", "system": "healthy elderly humans", "setting": "oral, 2 mg, eyes closed, LS mean", "measurement": "beta power, EEG, Fz Cz", "value": "5.9 µV²"}
{"SMILES": "C=CCn1c(=O)c2cnc(Nc3ccc(N4CCN(C)CC4)cc3)nc2n1-c1ccc2c(n1)[C@@](O)(CC)CC2", "system": "Rh30 xenograft, BALB/c nude mice", "setting": "oral, 80 mg/kg once daily x 21, day 18", "measurement": "tumour volume difference", "value": "1300 ± 54.3 mm3"}
{"SMILES": "CC(C)[C@H](NC(=O)[C@H](Cc1ccc(O)cc1)NC(=O)[C@H](Cc1ccc(O)cc1)NC(=O)[C@@H]1CCCN1C(=O)[C@H](CCC(=O)O)NC(=O)[C@H](CCC(=O)O)NC(=O)[C@H](Cc1c[nH]c2ccccc12)NC(=O)[C@@H]1CCCN1C(=O)[C@@H](NC(=O)[C@H](CCC(N)=O)NC(=O)c1ccc2c(c1)C(=O)OC21c2ccc(O)cc2Oc2cc(O)ccc21)C(C)C)C(=O)N[C@H](C(=O)N[C@@H](CCCCN)C(=O)N[C@@H](CCCCN)C(=O)N[C@@H](CO)C(=O)N[C@@H](CO)C(=O)NCC(=O)NCC(N)=O)C(C)C", "assay": "added benefit of NERVE", "system": "human head and neck surgery, nerves", "setting": "500 mg, very much added benefit", "how to read": "reference: white light", "measurement": "share of responses", "value": "0%"}
{"SMILES": "Cn1cc(Nc2nc(N)nc(-c3cccc(-n4ccc5cc(C6CC6)cc(F)c5c4=O)c3CO)n2)cn1", "assay": "CD63 upregulation, anti-IgE-induced", "system": "human, multiple ascending dose, whole blood basophils ex vivo", "setting": "50 mg twice daily, day 14, 8 h", "measurement": "inhibition", "value": "79.4%"}
{"SMILES": "COc1ccc(-c2cncc(N[C@@H](C)c3cccc(NC(=O)c4cncc(C)c4)c3)n2)cc1OC", "assay": "item: rno-miR-382-5p", "system": "rat SU5416/hypoxia model, lung", "setting": "dose not given, unit not given", "how to read": "reference: SU5416/hypoxia vehicle", "measurement": "delta delta Ct", "value": -1.09}
{"SMILES": "O=C(O)CNC(=O)Cc1ccccc1", "system": "ventricular cardiomyocytes, C57BL/6 mouse", "setting": "dose not given, 0.26 s", "measurement": "sarcomere length", "value": "1.66 µm"}
{"SMILES": "COc1cc(Nc2ncc3c(n2)-c2ccc(Cl)cc2C(c2c(F)cccc2OC)=NC3)ccc1C(=O)O", "system": "mouse, KT-10 Wilms tumour xenograft", "setting": "oral, 10.4 mg/kg, day 7", "how to read": "reference: vehicle", "measurement": "relative tumour volume T/C", "value": 1.49}
{"SMILES": "CC(NC(=O)C(C#N)=Cc1cccc(F)c1)c1ccccc1 (stereo not drawn)", "target or system": "UCHL1", "assay": "covalent, intact protein LC-MS", "setting": "12.5 µM", "measurement": "labelling", "value": "29%"}
{"SMILES": "C[C@H](Oc1ccc(Br)cc1-c1ccon1)C(=O)O", "assay": "muscle velocity recovery cycles", "system": "human, tibialis anterior muscle", "setting": "1200 mg single dose, 3.5 h post-dose, frequency ramp, first response at 15 Hz", "measurement": "latency change", "value": "93.7%"}
{"SMILES": "O=C(OC(C(F)(F)F)C(F)(F)F)N1CCN(Cc2cccc(Oc3ccccc3)c2)CC1", "assay": "PET", "system": "rhesus monkey, striatum", "setting": "intravenous, 0.01 mg/kg, pretreatment blocking, together with: [18F]T-401", "measurement": "tracer distribution volume", "value": "10.6 mL/cm3"}
{"SMILES": "COc1ncc(-c2nc3c(n2C(C)C)[C@H](c2ccc(Cl)cc2)N(c2cc(Cl)cn(C)c2=O)C3=O)c(OC)n1", "assay": "International Working Group criteria", "system": "human acute myeloid leukemia patients", "setting": "dose not given, response CR, all patients", "measurement": "best overall response", "value": "5.5%"}
{"SMILES": "Cc1cc(NC(=O)NCCN2CCC(O)(Cc3ccccc3)CC2)c2ccccc2n1", "assay": "open field test", "system": "humanized UT (+/h+) mice", "setting": "dose not given, 0.1667 h", "measurement": "distance travelled", "value": "30 m and 18 m and 21 m and 34 m and 26 m"}
{"SMILES": "CC[C@@H]1[C@H](F)C(=O)N[C@@H]1COc1nccc2cc(C(N)=O)c(OC)cc12", "assay": "ATP-site probe binding, ActivX profiling, item: PCTAIRE1, PCTAIRE3", "system": "THP-1 cell lysate", "setting": "0.04 mM, Lys2 site", "measurement": "inhibition", "value": "0.457%"}
{"SMILES": "CO[C@H]1CC[C@H](N2C(=O)CNc3ncc(-c4ccc(C(C)(C)O)nc4)nc32)CC1", "assay": "flow cytometry", "system": "stimulated T cells, human, blood", "setting": "45 mg single dose, 5 h, mean", "how to read": "reference: baseline", "measurement": "p4EBP1 change from baseline", "value": "-48.3%"}
{"SMILES": "CC1(C)CCC(c2ccc(Cl)cc2)=C(CN2CCN(c3ccc(C(=O)NS(=O)(=O)c4ccc(N[C@H](CCN5CCOCC5)CSc5ccccc5)c(S(=O)(=O)C(F)(F)F)c4)cc3)CC2)C1", "assay": "cell killing", "system": "canine lymph node CD3+ T cells, dog 34", "setting": "24 h", "measurement": "EC50", "value": "0.265 µM"}
{"SMILES": "Cn1cc([C@H]2C[C@H]3CSC(N)=N[C@@]3(c3ccc(F)cc3F)CO2)cn1", "assay": "item: Aβx-42", "system": "Mus musculus wild-type, brain", "setting": "subcutaneous, 10 mg/kg, 3 h", "measurement": "Aβ42 level", "value": "0.44 ng/g"}
{"SMILES": "CCCn1cc(C)c2c(=O)[nH]c(-c3cc(S(=O)(=O)N4CCN(CC)CC4)ccc3OCC)nc21", "system": "supine", "setting": "concentration not given, 0 to 4 h", "how to read": "reference: baseline", "measurement": "maximum change in systolic blood pressure", "value": "-6.26 ± 5.16 mmHg"}
{"SMILES": "Cc1cnc(N2CC3(CCOCC3)C2)c(C(=O)Nc2ccc(C(=O)N3CCc4cc(C(=O)Nc5c(C)cccc5F)sc4-c4ccccc43)cc2)c1", "assay": "item: dsDNA", "system": "human RSV infection, nasal wash", "setting": "dose not given, AUC, ITT-IS population", "how to read": "reference: placebo", "measurement": "inhibition", "value": "-9%"}
{"SMILES": "COc1cc(/C=C/C(=O)CC(=O)/C=C/c2ccc(O)c(OC)c2)ccc1O", "system": "high-fat diet hyperlipidaemic rat", "setting": "oral, 200 mg/kg daily, 4 weeks", "measurement": "plasma LDL-C", "value": "1.47 ± 0.3 mmol/L"}
{"SMILES": "O=C(COc1ccc(Cl)cc1)NC12CC(c3nnc([C@H]4C[C@@H](OC(F)(F)F)C4)o3)(C1)C2", "system": "healthy human, PBMC", "setting": "45 mg once daily, day 14, 4 h post-dose, median, together with: sodium arsenite ex vivo", "how to read": "reference: baseline", "measurement": "CHAC1 mRNA change", "value": "-54.9%"}
{"SMILES": "C[C@H]1C[C@H]2CSC(N)=N[C@@]2(c2nc(NC(=O)c3ccc(OC(F)F)cn3)cs2)CO1", "assay": "item: Aβ1-40", "system": "healthy adults, plasma", "setting": "5 mg once daily, day 2", "how to read": "reference: placebo", "measurement": "percent change from baseline", "value": "-45.2%"}
{"SMILES": "N#Cc1ccc2c(c1)[C@H]1CCCN(C(=O)c3ccc4[nH]cnc4c3)[C@H]1C2", "assay": "meal tolerance test", "system": "human, Phase II trial", "setting": "240 mg once daily, day 28, AUC0-2 h, adjusted mean", "how to read": "reference: baseline", "measurement": "glucose AUC change", "value": "1.07 mmol/h/L"}
{"SMILES": "NCC(=O)Nc1cncc(-c2nn3c(=O)cc(N4CCNCC4)nc3s2)c1", "assay": "ADP-induced platelet aggregation, light transmission aggregometry", "system": "human stable CAD patients on aspirin, platelets ex vivo", "setting": "0.075 mg/kg, 120 min post dose, together with: 20 µM ADP", "how to read": "reference: placebo difference", "measurement": "inhibition of platelet aggregation", "value": "28.1%"}
{"SMILES": "CCCCC1(CCCC)CN(c2ccccc2)c2cc(SC)c(OCC(=O)N[C@@H](C(=O)NCC(=O)O)c3ccccc3)cc2S(=O)(=O)C1", "assay": "item: 7α-hydroxy-4-cholesten-3-one", "system": "human, plasma", "setting": "15 mg once daily, day 13", "measurement": "plasma C4", "value": "77.1 ng/mL"}
{"SMILES": "O=C1Nc2cc3[nH]nc(-c4ccncc4)c3cc2CN1Cc1ccccc1", "assay": "RECIST v1.1", "system": "human, relapsed or refractory advanced solid tumours", "setting": "intravenous, 4.8 mg/kg, pooled schedules", "measurement": "stable disease, best response", "value": "0%"}
{"SMILES": "CCO[C@H]1CCN(Cc2c(OC)cc(C)c3[nH]ccc23)[C@H](c2ccc(C(=O)O)cc2)C1", "system": "PNH patients, blood", "setting": "oral, 25 mg then 100 mg, week 2, mean percent change", "how to read": "reference: baseline", "measurement": "C3d-positive type III RBCs", "value": "-53.5%"}
{"SMILES": "COc1ccc(C2=N[C@@H](c3ccc(Cl)cc3)[C@@H](c3ccc(Cl)cc3)N2C(=O)N2CCNC(=O)C2)c(OC(C)C)c1", "assay": "echocardiography", "system": "Dmd C3333Y mouse", "setting": "dose not given", "measurement": "fractional shortening", "value": "25.7% and 29.8% and 26.9% and 26.5% and 30.5%"}
{"SMILES": "FC(F)(F)Oc1cccc(-c2cnc3ccc(-c4ccncc4)nn23)c1", "assay": "bioluminescence imaging", "system": "mouse, MDA-MB-231-Luc xenograft", "setting": "30 mg/kg, day 14", "measurement": "tumour bioluminescence", "value": "5.28e+10 photons/s and 9.96e+10 photons/s and 1.53e+10 photons/s and 1.14e+10 photons/s and 4e+10 photons/s"}
{"SMILES": "N#Cc1ccn2c(-c3ccncc3)c(-c3ccc(F)cc3)nc2c1", "assay": "kinase binding, competitor, MIB/MS competition, item: RIM11", "system": "Candida albicans cell lysate", "setting": "10 µM", "how to read": "reference: DMSO", "measurement": "log2 fold change", "value": 0.0166}
{"SMILES": "Cn1cc(Nc2nccc(-c3ccc4c(c3)CN(C3COC3)CC[C@H]4NC(=O)c3cn(C(C)(C)C)nn3)n2)cn1", "assay": "item: PTEN signalling", "system": "mouse splenic B cells, mouse", "setting": "30 mg/kg, IgD-activated B cells in vivo", "how to read": "reference: vehicle, direction not given", "measurement": "pathway activation z-score", "value": -1.07}
{"SMILES": "C[C@]12CC[C@@H]3c4ccc(O)cc4CC[C@H]3[C@@H]1CC[C@@H]2O", "assay": "RT-qPCR, item: CO", "system": "Arabidopsis thaliana ING1:FLAG seedlings", "setting": "20 µM, 4 h after treatment, replicate rep2, unit not given", "how to read": "reference: TUB2", "measurement": "mRNA level", "value": 0.0417}
